Results from different studies.
Every numbered part comes from another study and shows a few of its results, in no order. Substitutions count along the parent as printed.

Series 1
Target: ABI1, truncated, D143A, DHFR fusion (Arabidopsis thaliana)
Technique: DHFR PCA, deep sequencing
Sample: yeast
Notes: methotrexate growth selection, single substitutions
Together with: (+)-ABA 58 µM
Reference: wild-type fitted maximum
Direction: higher = stronger binding
Quantity: relative binding score
Parent: PYL1, truncated, DHFR fusion (Arabidopsis thaliana); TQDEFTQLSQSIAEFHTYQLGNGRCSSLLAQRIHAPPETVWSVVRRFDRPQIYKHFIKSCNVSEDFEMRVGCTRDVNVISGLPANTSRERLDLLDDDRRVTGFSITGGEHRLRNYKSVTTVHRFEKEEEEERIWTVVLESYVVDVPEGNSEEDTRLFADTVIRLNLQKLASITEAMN; partner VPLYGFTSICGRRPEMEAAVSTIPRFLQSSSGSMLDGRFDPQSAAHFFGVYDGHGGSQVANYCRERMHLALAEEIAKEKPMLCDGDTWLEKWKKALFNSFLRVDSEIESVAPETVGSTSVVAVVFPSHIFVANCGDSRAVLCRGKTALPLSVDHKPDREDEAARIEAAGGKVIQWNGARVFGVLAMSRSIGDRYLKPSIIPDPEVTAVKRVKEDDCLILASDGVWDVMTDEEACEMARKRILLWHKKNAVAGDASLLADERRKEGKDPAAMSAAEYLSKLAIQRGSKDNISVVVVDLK
Substitution = G102Q; value = 38.1%
Substitution = R99H; value = 95%
Substitution = V118A; value = 42.3%
Substitution = R74M; value = -24.3%
Substitution = Y18G; value = 57.8%
Substitution = F15V; value = 39.8%
Substitution = N77R; value = 94%
Substitution = E152M; value = 77.7%
Substitution = T1V; value = 91.9%
Substitution = Q2A; value = 92%
Substitution = E109I; value = 72.6%
Substitution = A35N; value = 1.12%
Substitution = A170W; value = 0.457%
Substitution = T135H; value = -13.4%
Substitution = P83V; value = 5.59%

Series 2
Target: Sal-like protein 4, full length isoform A (SALL4, Homo sapiens, UniProt Q9UJQ4, residues 1-1053)
Sequence of UniProt Q9UJQ4 (whole entry, looked up): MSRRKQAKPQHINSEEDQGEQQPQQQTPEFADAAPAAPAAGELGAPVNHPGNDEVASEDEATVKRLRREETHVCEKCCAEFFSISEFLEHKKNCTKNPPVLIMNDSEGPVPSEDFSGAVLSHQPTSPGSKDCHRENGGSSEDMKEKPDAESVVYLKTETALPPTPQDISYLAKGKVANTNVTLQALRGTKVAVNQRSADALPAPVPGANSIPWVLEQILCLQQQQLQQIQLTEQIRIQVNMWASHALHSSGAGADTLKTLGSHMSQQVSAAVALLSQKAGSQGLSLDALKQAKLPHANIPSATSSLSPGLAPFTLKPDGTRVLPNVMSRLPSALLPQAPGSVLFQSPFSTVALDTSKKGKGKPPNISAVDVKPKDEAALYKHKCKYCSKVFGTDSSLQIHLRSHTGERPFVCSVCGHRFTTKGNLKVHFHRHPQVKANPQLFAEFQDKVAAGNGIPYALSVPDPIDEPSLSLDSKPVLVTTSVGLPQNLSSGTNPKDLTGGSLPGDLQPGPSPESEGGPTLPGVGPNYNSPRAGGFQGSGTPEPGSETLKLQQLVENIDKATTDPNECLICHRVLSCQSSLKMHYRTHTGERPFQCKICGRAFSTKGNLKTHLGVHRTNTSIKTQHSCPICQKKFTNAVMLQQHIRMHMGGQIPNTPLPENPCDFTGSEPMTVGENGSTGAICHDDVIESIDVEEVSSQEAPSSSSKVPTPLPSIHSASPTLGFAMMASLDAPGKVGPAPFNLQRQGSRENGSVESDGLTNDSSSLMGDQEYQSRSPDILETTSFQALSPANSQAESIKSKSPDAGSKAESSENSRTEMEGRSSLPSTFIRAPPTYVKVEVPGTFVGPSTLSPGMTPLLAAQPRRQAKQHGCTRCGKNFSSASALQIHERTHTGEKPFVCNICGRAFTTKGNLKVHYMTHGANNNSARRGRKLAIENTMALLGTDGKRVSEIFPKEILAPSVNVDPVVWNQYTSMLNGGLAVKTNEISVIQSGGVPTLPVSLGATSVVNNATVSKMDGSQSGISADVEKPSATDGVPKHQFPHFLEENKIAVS
Technique: universal PBM
Form: double-stranded DNA, one strand shown
Sample: in vitro
Tested at: 600 nM
Notes: 8-mer, flanks averaged, mean of replicates
Direction: higher = stronger binding
Quantity: E-score
Sequence = ATCCAGCG; value = -0.112
Sequence = CTCCTGTC; value = -0.0332
Sequence = ATCCAGGA; value = -0.0814
Sequence = TGTCCCAA; value = -0.0326
Sequence = CACTAACC; value = -0.159
Sequence = CTGGTGAC; value = -0.246
Sequence = CATATTAG; value = 0.283
Sequence = TCGTGTAA; value = 0.104
Sequence = AACGCGAC; value = -0.237
Sequence = AAAATAAT; value = 0.387
Sequence = AGATGTGG; value = 0.17
Sequence = GCACTGCA; value = -0.24
Sequence = CTCAGCTC; value = -0.265
Sequence = CACTCAGC; value = -0.22
Sequence = TGAACCAA; value = 0.155
Sequence = AGGTTTTA; value = 0.0569

Series 3
Target: RING finger protein unkempt homolog, zinc fingers 1-6, GST-SBP tag (UNK, Homo sapiens, UniProt Q9C0B0, residues 30-357)
Technique: RNA Bind-n-Seq
Form: RNA
Sample: in vitro
Tested at: not given
Notes: RNA with constant flanks, human and mouse sites, ends assumed
Reference: input RNA pool
Direction: higher = stronger binding
Quantity: bound/input enrichment
All sequences stand within: GGGAGUUCUACAGUCCGACGAUC … CAACAGAGGAUUGAGCAUCA
Target sequence (chain): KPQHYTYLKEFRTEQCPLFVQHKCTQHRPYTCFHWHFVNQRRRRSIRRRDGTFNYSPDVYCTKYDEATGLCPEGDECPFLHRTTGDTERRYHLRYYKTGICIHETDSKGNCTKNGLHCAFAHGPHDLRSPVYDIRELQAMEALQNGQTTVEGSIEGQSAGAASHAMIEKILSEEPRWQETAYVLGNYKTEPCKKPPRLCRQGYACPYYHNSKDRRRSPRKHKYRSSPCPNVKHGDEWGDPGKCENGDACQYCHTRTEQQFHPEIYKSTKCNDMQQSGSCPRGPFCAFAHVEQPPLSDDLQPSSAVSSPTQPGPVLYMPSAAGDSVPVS
Sequence = UGAGCUGCCGAAGCCGCUGCCCUGCUCUCCGUCGCGGGCUCCUUUAAUCCCAUUGUUUCUUUUAGAUUCGCUUGGGCCUAGACGCCCUCGGGGCCCGAUAUUCGGGUUGGGCGGUACCGC; value = 0.334 ratio
Sequence = AUCUCGUGCCUCUCCCCACGGGGGGUGGGGGACGCUGAAUGACCCUCAGCUGUUCCAAUCCAGUGGGUUUUUUUGAUUUGUUUGUUUUUGUUUUUUUUUUUUUAUUAAAGAAAUUACUGU; value = 0.347 ratio
Sequence = GUACCAGUGAAGGACAAGAAACUUCUGGAGGUCAAACUGGGGGAGCUGCCAAGCUGGAUCUUGAUGCGGGACUUCAGUCCUAGUGGCAUUUUCGGAGCGUUUCAAAGAGGUUACUACCGG; value = 0.185 ratio
Sequence = GACUAUACAAUCCCAGAUGAGUAUAGAAUUGGACCAUAUCAGCCCAAUGUUCCUGUUGGUAUAGACUAUGUGAUACCUAAAACAGGGUUUUACUGUAAGCUGUGUUCACUCUUUUAUACA; value = 0.0923 ratio
Sequence = CCUACAGUUUUUAAUUUCUACAAUUAUCUAAGAACACAUCCUCUUUUGCUGAGACGUCAUUUUGGAUCAUCUGAUACAUUUUCCACACAUAUGAGCCUAACAGGAAAAAGUGGACUGGCA; value = 0.297 ratio
Sequence = CUGCAGUCUUUGACUUUUCCUUUCUUUUUUGCCACCCUUUCAGGAACCCUGUAUGGUUUUUAGUUUAAAUUAAAGGAGUCGUUAUCGUGGUGGGAAUAUGAAAUAAAGUAGAAGAAAAGG; value = 1.41 ratio
Sequence = AGCAGGUUUGUGGUGAUUAUUUACUGUCUAGAAUGGAUGUUACCAGCUGCAUCUCUUACCGAAAUUUUGCAAGUUGUAUGGGAGACUCCCGUUUGUUGAAUAAGGUUGAUGCUUAUAUUC; value = 0.46 ratio
Sequence = GAUGGCCUGCAUUUAUCACCAAUGGGAAAUGAGUUUCUGUUCUUAAACCUCUGUCCACUGCUGGACAAGAAGGUCUCAUCUCUGCCGUGGCUGCUUCCUUACUGGAAGGAUGUGGAGGAA; value = 0.164 ratio
Sequence = GAAAAACUGUUUGCUGAAGACACAGAGGCAAAGAAUCCAUUUUCAACUCAGGACACUGAUUUAGAUUUGGAGAUGCUGGCUCCCUAUAUCCCAAUGGAUGAUGAUUUCCAGUUACGUUCC; value = 0.2 ratio
Sequence = AUCGCUGUUGGAUCCAUCUCCUUCCUUCUGGGAGUUGUACUGCUAGUAAUUAAUCAUAAAUAUAGAAACAGUAGUAAUACAGCUGACAUUACCAUUUAAUUUUAUAUUAUGAAAGCAAAU; value = 0.333 ratio
Sequence = UACUUUCAAAGAGCCCCAAGGGCUUAAUGACCCCAUUUGUAACUGAGAAAUGAUUCUUGUUUUAGUAAUCAUUCUAUAAAUGAUACUGCUGGAUUGAUUGCCGUGGGUUGAUAGCUGGAG; value = 0.409 ratio

Series 4
Target: Interferon regulatory factor 7, full length, phosphomimetic (IRF7, Homo sapiens, UniProt Q92985, residues 1-503, S471D/S472D/S475D/S476D/S477D/S483D/S484D/S487D)
Sequence of UniProt Q92985 (whole entry, unmodified, looked up): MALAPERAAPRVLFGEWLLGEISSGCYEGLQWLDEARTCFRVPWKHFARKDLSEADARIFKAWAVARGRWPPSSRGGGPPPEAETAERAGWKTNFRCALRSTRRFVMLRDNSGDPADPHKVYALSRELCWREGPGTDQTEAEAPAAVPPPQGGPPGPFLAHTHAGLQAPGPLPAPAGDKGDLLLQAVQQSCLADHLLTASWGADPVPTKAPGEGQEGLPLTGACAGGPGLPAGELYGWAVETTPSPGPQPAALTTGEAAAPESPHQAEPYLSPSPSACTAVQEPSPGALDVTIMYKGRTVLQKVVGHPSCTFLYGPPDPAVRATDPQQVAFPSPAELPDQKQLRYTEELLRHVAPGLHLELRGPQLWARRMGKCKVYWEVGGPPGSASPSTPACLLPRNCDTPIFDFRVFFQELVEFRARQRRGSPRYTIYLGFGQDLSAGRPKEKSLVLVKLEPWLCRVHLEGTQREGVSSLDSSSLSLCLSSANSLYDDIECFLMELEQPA
Technique: protein-binding microarray
Form: double-stranded DNA, one strand shown
Sample: in vitro
Tested at: 2200 nM top
Notes: 60-bp whole probe
Together with: salmon DNA 0.4 mg/ml
Reference: random background probes
Direction: higher = stronger binding
Quantity: fitted relative affinity
All sequences stand within: GCCTAGCAC … GTCTTGATTCGCTTGACGCTGCTG
Sequence = GACGGTTTCGGATTCGGGACGTGCTAG; value = 8.42 z-score
Sequence = GACGGTATCCGTCTCCTGACGTGCTAG; value = 0.568 z-score
Sequence = CTACTTCTCTTTTGGCTTTCGTGCTAG; value = 3.84 z-score
Sequence = GCCGGACTGGGTCTCGGGACGTGCTAG; value = -1.28 z-score
Sequence = TCACATCTCATATAAATAACTGTGCTA; value = 0.886 z-score
Sequence = TTAGCTATCGGTTTCGGTTAGTGCTAG; value = 6.86 z-score
Sequence = TCATGGCTGACTTTGGAACTGTGCTAG; value = -0.224 z-score
Sequence = TTAGGTCTCCGTCTCGGTTAGTGCTAG; value = 0.619 z-score
Sequence = TTAGGTCTCCTTATCCTTGAGTGCTAG; value = 0.719 z-score
Sequence = GACGGTATCGGGTGTCGGGACGTGCTA; value = -0.486 z-score
Sequence = CTGGTCTCCGGTGTTTCCTAGTGCTAG; value = 0.548 z-score
Sequence = TTAGATTTCGGGTATCGATGAGTGCTA; value = 2.5 z-score
Sequence = GACGATTTCAGCATCGAGACGTGCTAG; value = 0.511 z-score
Sequence = TTTTTTTTCACTATTGCTTCGTGCTAG; value = 3.38 z-score
Sequence = GACGATAGCAGTCTCGAGACGTGCTAG; value = -0.11 z-score
Sequence = GGCCCTGTCCTTTTCTTTACGTGCTAG; value = 1.16 z-score
Sequence = TCACATCTGCAAGATCCAACTGTGCTA; value = 0.995 z-score
Sequence = TCAAATTGTCTTTTCACACTGTGCTAG; value = 0.939 z-score
Sequence = TTAGGACTGGGTTTCGGTAAGTGCTAG; value = 0.876 z-score
Sequence = TCATGCATCTATCTTAAACTGTGCTAG; value = 0.815 z-score
Sequence = GACGGTATCGGGTATGGGGACGTGCTA; value = -0.238 z-score
Sequence = AAGACTTTCTTTCAAATGAAGTGCTAG; value = -0.181 z-score
Sequence = GGCGGACTGCTTTTCCTGACGTGCTAG; value = -0.0849 z-score
Sequence = GTCGGTTTCGACTTTCGGGACGTGCTA; value = 9.67 z-score
Sequence = GACGGACTGCTTCACCTGACGTGCTAG; value = 0.26 z-score

Series 5
Target: RNA binding protein fox-1 homolog 2, RRM domain, GST-SBP tag (RBFOX2, Homo sapiens, UniProt O43251-10, residues 100-194)
Technique: RNA Bind-n-Seq
Form: RNA
Sample: in vitro
Tested at: 365 nM
Notes: natural RNA segment, single round, ends assumed
Reference: no-protein control
Direction: higher = stronger binding
Quantity: RBNS enrichment (R)
All sequences stand within: GGGAGUUCUACAGUCCGACGAUC … UGGAAUUCUCGGGUGCCAA
Residues (chain): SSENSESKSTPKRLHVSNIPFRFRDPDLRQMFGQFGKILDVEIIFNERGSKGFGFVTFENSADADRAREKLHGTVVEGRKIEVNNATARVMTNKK
Sequence = CUGGUCCCAACCUGCAGACCCCACAGCAGUCAGUUGGUCAGGCCCUGCUGUAGAAGGUCACUUGGCUCCAUUGCCUGCUUCCAACCAAUGGGCAGGAGAGAAGGCCUUUA; value = 0.431
Sequence = AAAAAGUGGAGUCCUAUGUACCAGACUGAGUUUUUACAAAUGAUUUGCAGGCUAGACAUAACCCACUGAUGGAAAUGGUGAAGAAUGAGCUUCAUGUAGGUUUAAAAGUG; value = 0.587
Sequence = CCAAAGCCGCCUUAGUGAAGAGCAGUAUGUUCUGAUCUGCGAUCUGCGGCGGCGGCGGGCGAGCCCGGGGCCCGGGCUGGCGAGUGGGCGAGUGGGUAGACCCAAGGCUA; value = 0.292
Sequence = AUUUAUUUCUGUUUGAAUUUGAAACAGUGUUAUGCUUACAAGACUUCAUAAUGAUUUUAUGUCUUGCUUUAAAGAUAGUACCUGCAGAAUAGUUUUUGAAUACACCCACA; value = 0.921
Sequence = CUCCCACACCCAAGAGGAGUGGUGGGUUUGAGUUUGGAGGUUUUACUCAAGUGACAGCUUCAGCAUUUCUUGGUAGCACCUACAGCAUUCUGAUUACAUGCAGGUUCCUG; value = 0.385
Sequence = UAGCUUCUCAUUACAGUAUUUCUAAUUGCUUCACACUUUACAGUUUUAAUACAAAGUACAAGCUCUACUUUUAUAACGUGUACUACAAGUUUCUUUAAAAGUAUUGUUGU; value = 0.495
Sequence = CCAGUGCAUCAUCAGAAGCCUUCCUCGUGACCAUAACUCUGUGUCUGCAGAUAUGUGUUCCCGUGUAAGCCAGUUUUCCCCUUUUACUCAGACUGAUUUCACCUAGAUUG; value = 0.314
Sequence = GGCUGGCUUUUUCUACACCCUCUUUUGAGUGUAGUUUGGUAUUUUGUAAUUGAGAGCUCAUUUCAAAAGCAGAAAAAGACAACAAAUAUUAAAGCAAGGAAAAGUGUAAC; value = 0.342
Sequence = UGUAAGGAGAGGUUUUAAUUAAAACAAAAAAAAAUUCUUUUUUUUUUUUUUUUCCAAUUUUACCUUCUUUAAAAUAGGUUGUUGGAGCUUUCCUCAAAGGGUAUGGUCAU; value = 0.67
Sequence = GUCUGUUGUAUUUCUGUGUGCCUGUUCCCUUCAUUGCUGUGAGUUGGGAGUGCAUUGAGAGAUGAUGUCCAUCUGAUAUAUUCCUGUGAAAUAAACUGCCAGCAAACUUU; value = 0.84
Sequence = AGGAGUGAUAUUUGUGGAGGAGGAGCUGUACAGUUAUCACUGUGUGUGUUUUGUUAAUACAAGAGGCCGGGUUUGGGGCUUGUGUUUGUCAAUAAACUCUUUGGCGCUGG; value = 0.654
Sequence = CAGGCAUCCUCCAUGUGGACUCACUGUGCUGUUGGGACUGAAACACUAACUUUGUAAAAUGUGUCUGGACCACAAGAGGAUACAGGAGAAGUGCUACCUCUGAUCUAACU; value = 0.427

A few entries again (series 2):
Sequence = ATCCAGCG; value = -0.112
Sequence = CTCCTGTC; value = -0.0332
Sequence = ATCCAGGA; value = -0.0814
Sequence = TGTCCCAA; value = -0.0326
Sequence = CACTAACC; value = -0.159
Sequence = CTGGTGAC; value = -0.246
Sequence = CATATTAG; value = 0.283
Sequence = TCGTGTAA; value = 0.104
Sequence = AACGCGAC; value = -0.237
Sequence = AAAATAAT; value = 0.387
Sequence = AGATGTGG; value = 0.17
